# Measured values collected from several papers.
# Lines come from different studies, so protocols differ.
# Organism: Staphylococcus aureus
Molecule,assay,test system,conditions,MIC
CC[C@H](C)[C@H](NC(=O)[C@H](C)NC(=O)[C@@H](NC(=O)[C@H](C)NC(=O)CNC(C)=O)[C@@H](C)O)C(=O)N[C@@H](CCCCN)C(=O)N[C@@H](CCC(N)=O)C(=O)N[C@H](C(=O)N[C@@H](CCCCN)C(=O)N[C@@H](CCCCN)C(=O)N[C@@H](CC(C)C)C(=O)N[C@@H](Cc1ccccc1)C(=O)N[C@@H](CCCCN)C(=O)N[C@@H](CCCCN)C(=O)N[C@@H](CCCCN)C(=O)NCC(=O)NCC(N)=O)C(C)C,broth microdilution,ATCC 25923,"24 h, 37 °C",310 µM
CC(C)C[C@H](N)C(=O)N[C@@H](CS)C(=O)N1CCC[C@H]1C(=O)N[C@@H](Cc1c[nH]cn1)C(=O)N[C@@H](CCCNC(=N)N)C(=O)N[C@@H](CS)C(=O)O,broth microdilution,MTCC 96,37 °C,90 µg/mL
CC[C@H](C)[C@H](NC(=O)[C@H](CC(=O)O)NC(=O)[C@H](CC(C)C)NC(=O)[C@H](CC(C)C)NC(=O)[C@@H](N)CCCCN)C(=O)N[C@H](C(=O)N[C@@H](CCCCN)C(=O)N[C@@H](CCCCN)C(=O)N[C@H](C(=O)N[C@H](C(=O)NCC(=O)N[C@@H](C)C(=O)N[C@@H](CC(C)C)C(=O)NCC(N)=O)C(C)C)C(C)C)C(C)C,,"SH1000 GFP-expressing, nutrient broth","20 h, 37 °C",> 100 µM
C[C@H]1COc2c(N3CCN(C)CC3)c(F)cc3c(=O)c(C(=O)O)cn1c23,"microbial growth, broth dilution",ATCCBAA1717 MRSA,20 h,0.48 µg/mL
CC(C)C[C@H](NC(=O)[C@H](CC(C)C)NC(=O)[C@H](CCCCN)NC(=O)[C@H](CC(C)C)NC(=O)[C@H](CC(C)C)NC(=O)[C@H](CCCCN)NC(=O)[C@H](CCCCN)NC(=O)[C@H](CC(C)C)NC(=O)[C@H](CC(C)C)NC(=O)[C@H](CCCCN)NC(=O)[C@H](CC(C)C)NC(=O)[C@H](CC(C)C)NC(=O)[C@@H](N)CCCCN)C(=O)N[C@@H](CCCCN)C(N)=O,,"SH1000 GFP-expressing, nutrient broth","20 h, 37 °C",10 µM
PACAP(6-38),,ATCC 25923,,1.81 µM
CC(C)C[C@H](NC(=O)[C@H](CC(C)C)NC(=O)[C@H](CCCCN)NC(=O)[C@H](CC(C)C)NC(=O)[C@H](CC(C)C)NC(=O)[C@H](CCCCN)NC(=O)[C@H](CCCCN)NC(=O)[C@H](CC(C)C)NC(=O)[C@H](CC(C)C)NC(=O)[C@H](CCCCN)NC(=O)[C@H](CC(C)C)NC(=O)[C@H](CC(C)C)NC(=O)[C@@H](N)CCCCN)C(=O)NCC(N)=O,,"SH1000 GFP-expressing, nutrient broth","20 h, 37 °C",> 100 µM
CC[C@H](C)[C@H](NC(=O)[C@@H]1CCCN1C(=O)[C@H](CCCNC(=N)N)NC(=O)[C@@H]1CCCN1C(=O)[C@H](Cc1c[nH]cn1)NC(=O)[C@H](CO)NC(=O)[C@@H](NC(=O)[C@@H]1CCCN1C(=O)[C@H](CCCNC(=N)N)NC(=O)[C@@H]1CCCN1C(=O)[C@H](CO)NC(=O)[C@H](Cc1ccc(O)cc1)NC(=O)[C@@H]1CCCN1C(=O)[C@H](CCCNC(=N)N)NC(=O)[C@@H]1CCCN1C(=O)[C@H](CCCCN)NC(=O)CN)[C@@H](C)O)C(=O)N[C@@H](CCCNC(=N)N)C(=O)N[C@H](C(=O)O)C(C)C,broth microdilution,USA300 LAC,37 °C,> 100 µM
CC[C@H](C)[C@H](NC(=O)CNC(=O)[C@H](CCCNC(=N)N)NC(=O)[C@H](Cc1ccccc1)NC(=O)[C@@H](NC(=O)[C@H](Cc1c[nH]cn1)NC(=O)[C@H](Cc1c[nH]cn1)NC(=O)[C@H](Cc1ccccc1)NC(=O)[C@@H](N)Cc1ccccc1)[C@@H](C)CC)C(=O)N[C@H](C(=O)N[C@@H](Cc1c[nH]cn1)C(=O)N[C@H](C(=O)NCC(=O)N[C@@H](CCCCN)C(=O)N[C@H](C(=O)N[C@H](C(=O)N[C@@H](Cc1c[nH]cn1)C(=O)N[C@@H](CCCNC(=N)N)C(=O)N[C@@H](CC(C)C)C(=O)N[C@H](C(=O)N[C@H](C(=O)NCC(N)=O)[C@@H](C)O)C(C)C)[C@@H](C)CC)[C@@H](C)O)C(C)C)C(C)C,broth microdilution,"MRSA clinical isolate, brain heart infusion","18 h, 37 °C",3.1 µg/mL
CC[C@H](C)[C@H](NC(=O)[C@H](CCCNC(=N)N)NC(=O)CNC(=O)[C@H](CC(C)C)NC(=O)[C@H](Cc1ccccc1)NC(=O)[C@H](CCC(N)=O)NC(=O)[C@H](Cc1ccccc1)NC(=O)[C@@H](N)C(C)C)C(=O)N[C@H](C(=O)N[C@@H](Cc1c[nH]cn1)C(=O)N[C@@H](Cc1c[nH]cn1)C(=O)N[C@H](C(=O)NCC(=O)N[C@@H](CC(N)=O)C(=O)N[C@@H](Cc1ccccc1)C(=O)N[C@H](C(=O)N[C@@H](Cc1c[nH]cn1)C(=O)NCC(=O)N[C@@H](Cc1ccccc1)C(=O)N[C@@H](CO)C(=O)N[C@@H](Cc1c[nH]cn1)C(=O)N[C@H](C(=O)N[C@@H](Cc1ccccc1)C(=O)O)C(C)C)C(C)C)C(C)C)[C@@H](C)CC,broth microdilution,USA300 LAC,37 °C,> 100 µM
CN[C@H](CC(C)C)C(=O)N[C@H]1C(=O)N[C@@H](CC(N)=O)C(=O)N[C@H]2C(=O)N[C@H]3C(=O)N[C@H](C(=O)N[C@H](C(=O)O)c4cc(O)cc(O)c4-c4cc3ccc4O)[C@H](O)c3ccc(c(Cl)c3)Oc3cc2cc(c3O[C@@H]2O[C@H](CO)[C@@H](O)[C@H](O)[C@H]2O[C@H]2C[C@](C)(N)[C@H](O)[C@H](C)O2)Oc2ccc(cc2Cl)[C@H]1O,,MRSA ATCC BAA-1720,20 h,2 µg/mL
CC[C@H](C)[C@H](NC(=O)[C@H](C)NC(=O)CNC(=O)[C@H](C)NC(=O)[C@H](CCCCN)NC(=O)[C@H](CO)NC(=O)[C@H](C)NC(=O)[C@H](CCSC)NC(=O)CN)C(=O)N[C@@H](C)C(=O)NCC(=O)N[C@@H](CCCCN)C(=O)N[C@H](C(=O)N[C@@H](C)C(=O)N[C@@H](CCCCN)C(=O)N[C@H](C(=O)N[C@@H](C)C(=O)N[C@@H](CC(C)C)C(=O)N[C@@H](CCCCN)C(=O)N[C@@H](C)C(=O)N[C@@H](CC(C)C)C(N)=O)C(C)C)[C@@H](C)CC,broth microdilution,USA300 LAC,37 °C,25 µM
CC[C@H](C)[C@H](NC(=O)[C@H](Cc1ccc(O)cc1)NC(=O)[C@H](CCCCN)NC(=O)[C@@H](N)CS)C(=O)N[C@@H](CC(C)C)C(=O)N[C@@H](CC(C)C)C(=O)N[C@@H](CC(C)C)C(=O)N[C@@H](CCCNC(=N)N)C(=O)N[C@@H](CCCNC(=N)N)C(=O)N[C@@H](CCC(N)=O)C(=O)N[C@@H](CC(C)C)C(=O)N[C@@H](C)C(=O)N[C@@H](CCCNC(=N)N)C(=O)N[C@@H](C)C(=O)N[C@@H](Cc1c[nH]c2ccccc12)C(=O)N[C@@H](CCCNC(=N)N)C(=O)N[C@@H](CCCNC(=N)N)C(=O)NCC(=O)N[C@@H](CC(C)C)C(=O)N[C@@H](CCCNC(=N)N)C(=O)O,broth microdilution,media-adapted JE2,18 to 20 h,24 µg/mL

# Some of these lines once more:
Molecule,assay,test system,conditions,MIC
CC[C@H](C)[C@H](NC(=O)[C@H](C)NC(=O)CNC(=O)[C@H](C)NC(=O)[C@H](CCCCN)NC(=O)[C@H](CO)NC(=O)[C@H](C)NC(=O)[C@H](CCSC)NC(=O)CN)C(=O)N[C@@H](C)C(=O)NCC(=O)N[C@@H](CCCCN)C(=O)N[C@H](C(=O)N[C@@H](C)C(=O)N[C@@H](CCCCN)C(=O)N[C@H](C(=O)N[C@@H](C)C(=O)N[C@@H](CC(C)C)C(=O)N[C@@H](CCCCN)C(=O)N[C@@H](C)C(=O)N[C@@H](CC(C)C)C(N)=O)C(C)C)[C@@H](C)CC,broth microdilution,USA300 LAC,37 °C,25 µM
